# Results from different studies.
# Each numbered part is a random draw from the data of one study; scales do not carry over between parts.

# Sample 1
# Target: RNA binding protein fox-1 homolog 2, RRM domain, GST-SBP tag (RBFOX2, Homo sapiens, UniProt O43251-10, residues 100-194)
# Technique: RNA Bind-n-Seq
# Molecule type: RNA
# Sample: in vitro
# Tested at: 365 nM
# Setting: natural RNA segment, single round, ends assumed
# Relative to: no-protein control
# Reading: higher = stronger binding
# Residues (chain): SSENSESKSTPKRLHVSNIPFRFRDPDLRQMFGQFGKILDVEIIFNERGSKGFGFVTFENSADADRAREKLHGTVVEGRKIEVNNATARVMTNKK
Strand,RBNS enrichment (R)
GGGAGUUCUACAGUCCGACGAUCUGAACCACUGUGGCCUUCUCUUCUCAGCCUUCACUGUGACACGGGGGACAUUGAGUGACAAGCCUCAGAAUGUUACAGAGGUAAAGUGAGGCAUCUCAAAUCCACUGACAUGGAAUUCUCGGGUGCCAA,0.932
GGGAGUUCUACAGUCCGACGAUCCCACACUGGACUAGUCUAUGCCUCAUGUGUCCAGCUUCCAUGUUGGACUUCGACCAGCAUCUGAAGGGAACCAGGUUGUGUGUGCUUGCAGUUUGCUCCCUGUUGACAUAUGGAAUUCUCGGGUGCCAA,1.1
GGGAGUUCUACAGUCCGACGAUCUUCCACGCUGAGGUACCCUCUGCAGUGGUAGGCAGCCUGCCCAUAUGGCCACUUGGGCCUGACUCUAAGUUUCUGCCCCAGUGAAACAGACCAUGUGCAAUUCCCAGGUAUGGAAUUCUCGGGUGCCAA,0.199
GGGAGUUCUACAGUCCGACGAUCUUCCCAUGGCACUUCACCAGCCAGGGAGGCCCUGGGUGCUGGCAGCACAGGAGAGUCCUGUGUGUAGUGAGGGUUUUCCAUGAUCUAUUCUUGCAGUUUUUUUGGUAAUAUGGAAUUCUCGGGUGCCAA,0.564
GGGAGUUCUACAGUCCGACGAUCCCCUUCUACCCCACCUGACCUCUGCAAGAGGGGGCAUUGAUACAUCAUCGGGAAAAAACUUUGCUCCAGGCAUCACUGAUUCCCUCUCCCACCCAAGGAGAACGUUUGGUUGGAAUUCUCGGGUGCCAA,0.485
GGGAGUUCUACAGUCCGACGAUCUGUGCCUUACUCAUAGGGCUCAGGCUCCUGGCCUCUGGCUUCCUGCUUCUGGAUUCUCACCUUCACAGGGAGUUUCUUCCCGCCUCGGCCUUCUGGACAUGUCCUCUGUCUGGAAUUCUCGGGUGCCAA,0.208
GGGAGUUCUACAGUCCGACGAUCAAGUCUUUUACAAGAGGGACAACCCUAUUUUGGGAAACAAUAUCUCAUGGGAAGAAAACUGUACACACUGAACGCAUAGCCCGCUUAGAGAUCACAUCGCCUCUUAGAGAUGGAAUUCUCGGGUGCCAA,0.182
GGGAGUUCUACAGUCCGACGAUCCAUGUUGUUUCCAUAACUACUUUGAUAUUUUAACUCAGGUACUCCAGUCUUCACCCCAACCUCAGCUGAUUGUAGUACACCUGCUAGCUCUGUUGCCCCCUCAAAACUGCUGGAAUUCUCGGGUGCCAA,0.377
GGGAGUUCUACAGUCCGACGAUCCCGGUGCCCUGCGCGGGGCCUCCCCAGGACACACUGACGUAGAUUUGCUGUGUAGUCUUGGUGUGGAAAUUUGAAUUCUGCUUUUCUCUACUAAUCUGAAGUGCUCCGUGUGGAAUUCUCGGGUGCCAA,0.409
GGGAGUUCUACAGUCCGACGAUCAUAUUUGUGAAAAAUGCCACUGUCCUAGUGAUUUCUGAUGUAAAUAAUGUUGUUUAUAUAGUAUGUAUUAAAUUUUCCUACAUUGUAAAACUGCUGUACUUUUGAUUCUUUGGAAUUCUCGGGUGCCAA,0.729
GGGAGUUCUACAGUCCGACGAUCACAGUCUGUCUAUGUGUGCAUGUCAGAGGGAGAGAAGAGACAGACUGUAGGAGUGGGUCUCACAGUUAUCCAGCCCUGUGAUACUUGGGUUGACCCCAUGUUUCAGAUCCUGGAAUUCUCGGGUGCCAA,24.1
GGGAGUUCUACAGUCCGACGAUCUGGAGUCAGGUGGGCCCACGUAGGACAGGGUCACAAAGCCUGGGUUUGUUUCUGGGUACUUUGCGCCUCUGGGGUGCUAGAGGUGGGGCAUGGUGGCUGGAAGUAAAACUUGGAAUUCUCGGGUGCCAA,0.741

# Sample 2
# Target: Histone acetyltransferase KAT6A, winged helix 1, GST fusion (KAT6A, Homo sapiens, UniProt Q92794, residues 1-85)
# Technique: protein binding microarray
# Molecule type: double-stranded DNA, one strand shown
# Sample: in vitro
# Tested at: not given
# Setting: 8-mer, flanks averaged, mean of 2 arrays, mostly near background
# Relative to: not given
# Reading: higher = stronger binding
# Construct (chain): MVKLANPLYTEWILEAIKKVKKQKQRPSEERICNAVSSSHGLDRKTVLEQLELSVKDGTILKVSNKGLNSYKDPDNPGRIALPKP
Strand,E-score
ACGCAGTC,-0.0703
CCACTCAC,-0.0529
GAGACGGA,0.0665
ATAATAGC,-0.0927
ATGGAGAG,-0.17
CGGCCTCC,0.225
GCCCTAAA,0.137
ATATTCCA,-0.151
CGCACCCC,0.229
ATGACTTG,-0.0462
CGGGGACA,0.201
CACAGCGA,0.19
AGGGCACA,-0.228
AGAGATGG,-0.232
ATTAATTC,-0.0537
AGTAGCTA,-0.109
AGGTGCCG,0.244
ACTGGGTC,-0.217
GAGTGTTA,-0.0849

# Sample 3
# Target: Prothrombin, mature alpha-thrombin (F2, Homo sapiens, UniProt P00734)
# Technique: aptamer microarray, sandwich
# Molecule type: DNA with 2'F-ANA
# Sample: in vitro
# Tested at: 200 nM
# Setting: whole 15-mer aptamer, many near background
# Added: Cy3 exosite-II aptamer, 400 nM
# Reading: higher = stronger binding
# Strand: GGTTGGTGTGGTTGG
Modification,mean fluorescence intensity [a.u.]
2'F-ANA at 2 3 6 7 9 10 11 13 14 15,219
2'F-ANA at 3 5 7 12,298
2'F-ANA at 4 6 10 11 13,67.6
2'F-ANA at 1 2 3 4 6 7 8 11 12 13,202
2'F-ANA at 2 3 4 5 6 8 11 12,191
2'F-ANA at 7 9 11 13 14,181
2'F-ANA at 6 7 8 10 13 14 15,119
2'F-ANA at 1 3 5 6 9 10 11 13 14,83.8
2'F-ANA at 3 4 6 9 11 12 13,562
2'F-ANA at 1 2 4 8 10 11 14,47.9
2'F-ANA at 1 5 6 8 12 14 15,148
2'F-ANA at 1 3 4 6 7 12 13 14 15,77.6
2'F-ANA at 3 4 6 10 12 14,186
2'F-ANA at 1 2 4 6 7 9 10 11 15,50.4
2'F-ANA at 3 4 5 8 11 12 13 15,115
2'F-ANA at 6 7 8 12,894
2'F-ANA at 1 3 7 11 13 14 15,78.6
2'F-ANA at 2 3 4 5 7 8 9 10 12 15,61.9
2'F-ANA at 4 6 7 8 14,140
2'F-ANA at 2 4 7 9 10 12 13 15,110
2'F-ANA at 1 2 4 6 7 8 9 10 15,61.7
2'F-ANA at 2 3 8 9 10 11 12 13,378
2'F-ANA at 5 7 9 10 15,47.4
2'F-ANA at 3 4 7 8 9 11 12 13 14,340
2'F-ANA at 2 4 8 11 12,541

# Sample 4
# Target: Interferon regulatory factor 5, full length, phosphomimetic (IRF5, Homo sapiens, UniProt Q13568-2, residues 1-514, S451D/S453D/S456D/S462D)
# Technique: protein-binding microarray
# Molecule type: double-stranded DNA, one strand shown
# Sample: in vitro
# Tested at: 940 nM top
# Setting: 60-bp whole probe
# Added: salmon DNA 0.4 mg/ml
# Relative to: random background probes
# Reading: higher = stronger binding
# Constant ends, left off below: GCCTAGCAC … GTCTTGATTCGCTTGACGCTGCTG
Strand,fitted relative affinity [z-score]
GACGGTTTCGGAACTGGGGACGTGCTA,6.92
GACGGTTTCGACACTGGGGATGTGCTA,6.8
TTAGGTCTGGGTTTCGGTTAGTGCTAG,6.79
TTAGAACTGGGGTTTCCATTAGTGCTA,0.301
GGCCTCTCTGTTTTCCTGTTGTGCTAG,1.6
TCATTTTTTTTTTCTACACTGTGCTAG,1.88
CCGTGTTTCTCAACCATTTTGTGCTAG,0.796
GACGATATCAGTCTCGAGCCGTGCTAG,0.679
TCAATTTTTAGGATGGGACTGTGCTAG,-0.102
TCAGTTGTCCAGGCTGGTACTGTGCTA,-0.26
TTAGGTTTGCTTCTCCTTTAGTGCTAG,0.159
TTAGATTTAAGTCTCGATTAGTGCTAG,3.06
CTCATTCTCTGCTTGCGTCTGTGCTAG,1.79
TCTCTTTCCAACTCTGTTTTCGTGCTA,3.31
TCATCTTTTCATTTTCTACTGTGCTAG,1.88
GACGGACTGGGGCCTGGGGACGTGCTA,-0.595
GTCGAACTGAGTATCGAGACGTGCTAG,2.45
TTAGGGTTCCTTCTCCTTTAGTGCTAG,0.219
TTAGGACTGGGTATGGGTTAGTGCTAG,-0.106
TTAGGACTGCTTTTACTTTAGTGCTAG,0.24
TCATGTCTCTGTCCCTGACTGTGCTAG,0.764
TCATTTCCCTATTATATAACTGTGCTA,1.87
TTAGGACTGGGGACTGGGGTAGTGCTA,-0.0513
AATCATTCACCTGTCGTTGAGTGCTAG,-0.145
GACGAACTGAATCTCGAGACGTGCTAG,-0.114

# Excerpt of the above (sample 3):
Modification,mean fluorescence intensity [a.u.]
2'F-ANA at 2 3 6 7 9 10 11 13 14 15,219
2'F-ANA at 2 3 8 9 10 11 12 13,378
2'F-ANA at 1 2 3 4 6 7 8 11 12 13,202
2'F-ANA at 1 3 7 11 13 14 15,78.6
2'F-ANA at 3 4 6 10 12 14,186
2'F-ANA at 6 7 8 12,894
2'F-ANA at 3 4 7 8 9 11 12 13 14,340
2'F-ANA at 3 5 7 12,298
